Experimental data of several laboratories.
Compare with care: the assays were run in different laboratories. “And” joins repeats or separate records; there may be more than shown. ± marks the error that the study gave.

SMILES | tested on | test | system | setting | scale | measurement | value
O=C(COCC(F)F)Nc1ccc([C@H]2[C@@H](F)[C@@H](F)C[C@@H](F)[C@H]2F)cc1 | – | liver microsome stability | dog liver microsomes | 1 µM | – | hepatic clearance | 13 mL/min/kg
C=CCc1c(O)cc2c(c1O)C(=O)CC(c1ccc(O)cc1)O2 (stereo not shown) | MCF7 | cytotoxicity, MTT | – | 64.04 µM, 48 h | – | growth inhibition | 16.5%
CC(C)c1ccc(N(C)c2ccc3c(c2)OCC[C@H]3CNc2cnccc2C(=O)O)cc1 | DMS-79 | cell viability, CellTiter-Glo | – | 7 days | – | IC50 | 3.47 nM
COc1ccccc1-c1ccncc1C(=O)Nc1nnc(OCc2ccc(Cl)cc2)s1 | MDA-MB-436 BRCA1-mutant | – | – | 12 µM | – | colony count | 6 and 5 and 12 and 14 and 13
COc1ccc(NC(=O)c2ccc3[nH]c(-c4ccc(N(C)C)cc4)nc3c2)cn1 | HCEC-hTERT | IncuCyte | – | concentration not given, 20 h | – | dead cell to confluence ratio | 10.5 and 2.44 and 74.1
Cc1ncsc1-c1ccc(C(C)NC(=O)C2CC(O)CN2C(=O)C(NC(=O)CCCCCCCCCCN2CCCC(Nc3ncc(Cl)c(Nc4ccccc4S(=O)(=O)C(C)C)n3)C2)C(C)(C)C)cc1 (stereo not shown) | 22Rv1 | RNA-seq, measured: TPPP mRNA | – | concentration not given | baseline: DMSO | log2 fold change | -1.36
CC(=O)N[C@@H](CC(=O)O)C(=O)N[C@@H](CO)C(=O)N[C@@H](C)C(=O)N[C@@H](CC(=O)O)C(=O)COC(=O)c1c(C)cccc1C | THP-1 cells, LPS-primed | pyroptosis, LDH release | – | 25 µM, LPS 1 µg/mL, 4 h, together with: nigericin 5 µM, 2 h | – | cell lysis | 96.8%
F[C@@H]1[C@H](c2ccc(-c3ccc(N4CCCC4)nc3)cc2)[C@H](F)[C@H](F)C[C@@H]1F | – | hepatocyte stability | cryopreserved human hepatocytes | 1 µM | – | hepatic clearance | 7.1 mL/min/kg
CN1CCCNC(=O)c2cccc(c2)C(=O)NCCCN(C)CCCNc2cccc3c2C(=O)c2cccc(c2C3=O)NCCC1 | SAS | RNA-Seq, measured: SEC31A mRNA | – | 1 µM, 6 h | baseline: untreated cells | log2 fold change | -0.7
Cc1cc(Cl)cc(-c2ccnc3cc(CN4C(=O)C5C(C4=O)C5(C)C)sc23)c1C[C@@H]1CNCCO1 (stereo partly shown) | CHP-212 resistant cells (pooled) | annexin V-PI flow cytometry | – | 0.3 µM, 48 h | – | viable cells (annexin V-/PI-) | 84.5% and 83.3% and 91.7%
COc1ccc2c(c1)c(CC(=O)[Se]CC(=O)Nc1cccc(C(F)(F)F)c1)c(C)n2C(=O)c1ccc(Cl)cc1 | NCI60 leukemia subpanel | cell growth | – | 10 µM, 48 h, one-dose | – | mean growth percent | -70.3%
CNS(=O)(=O)Nc1nccc(Cc2c(C)c3ccc(Oc4ncccc4F)cc3oc2=O)c1F | NCI-H1993 | cell viability | – | 7 days | – | IC50 | 727 nM
CC12CCCC(NS(=O)(=O)c3ccc(O)cc3)(C1)C1CC(C)(C)C1CC2 (stereo not shown) | HT-29 | cell growth or viability, CCK-8 | – | 50 µM | – | inhibition | 99.5%
CCN(CC)CC(=O)Nc1cccc(-n2cc(-c3ccc4ccc(-c5cn(-c6cccc(NC(=O)CN(CC)CC)c6)nn5)cc4c3)nn2)c1 | RCC4 | PCR array, measured: TGFA | – | 5 x IC50, 4 h, normoxia | baseline: untreated | fold regulation | -1.21 fold
O=S(=O)(N[C@H]1CCO[C@@H](C2c3ccccc3CCc3ccccc32)C1)c1ccc(OC(F)(F)F)cc1 | D341 | immunoblot | – | concentration not given, 72 h | – | total PARP level | decreased
O=C(N/N=C/c1ccc2c(ccc[n+]2Cc2ccccc2)c1)c1cccc(C(=O)N/N=C/c2ccc3c(ccc[n+]3Cc3ccccc3)c2)n1 | 22CTA telomeric G4-DNA antiparallel | FRET melting | – | 1 µM, K10 buffer, DNA 0.2 µM, together with: ds26 10 µM | – | ΔTm | 15.2 ± 0.2 °C
C[C@@H]1CC[C@@H]([C@](O)(CNCc2ccccc2F)COCc2ccccc2)[C@H](OCc2ccccc2)C1 | A2780 | cell growth or viability, MTT | – | 10 µM, 72 h | – | inhibition | 99%
O=C(N/N=C/c1ccc2c(ccc[n+]2Cc2ccccc2)c1)C(=O)N/N=C/c1ccc2c(ccc[n+]2Cc2ccccc2)c1 | 22CTA telomeric G4-DNA antiparallel | FRET melting | – | 1 µM, K10 buffer, DNA 0.2 µM, together with: ds26 10 µM | – | ΔTm | 8.4 ± 0.5 °C
C=CC(=O)N1CCCC(n2c(=O)c3ncccc3n(Cc3ccc(Oc4ccccc4)cc3)c2=O)C1 (stereo not shown) | Rec1 | measured: ZYX | – | concentration not given | baseline: untreated | log2 fold change | 0.441
COC1CCN(C(=O)/C=C/c2nn(Cc3cccc(C(F)(F)F)c3)c3nc(NC(C)C)ncc23)CC1 | OE33 | cell growth or viability, resazurin | – | 5 days | – | EC50 | 4020 nM
CC12CCCC(n3cc(C(=O)N4CCC(O)CC4)nn3)(C1)C1CC(C)(C)C1CC2 (stereo not shown) | HT-29 | cell growth or viability, CCK-8 | – | 10 µM | – | inhibition | < 50%
CCN(C(=O)c1cc(F)ccc1Oc1nncnc1N1CCC2(C1)CN([C@H](CCCN(C)CCOC)C(C)C)C2)C(C)C | MINO | cell growth or viability | – | 7 days | – | GI50 | > 10000 nM
